{"data": "Assay results gathered from unrelated publications", "note": "Parts stem from different laboratories: compare values within a part only. Changes are numbered by the printed parent chain."}
{"data": "Set 1", "target": "Eukaryotic initiation factor 4A-I (EIF4A1, Homo sapiens, UniProt P60842, residues 1-406, full length assumed)", "technique": "RNA Bind-n-Seq", "form": "RNA", "matrix": "in vitro", "tested at": "not given", "notes": "4-mer, random 30-nt RNA, single round", "added": "RocA, ADP, phosphate", "baseline": "input library", "direction": "higher = stronger binding", "sequence of UniProt P60842 (whole entry, looked up)": "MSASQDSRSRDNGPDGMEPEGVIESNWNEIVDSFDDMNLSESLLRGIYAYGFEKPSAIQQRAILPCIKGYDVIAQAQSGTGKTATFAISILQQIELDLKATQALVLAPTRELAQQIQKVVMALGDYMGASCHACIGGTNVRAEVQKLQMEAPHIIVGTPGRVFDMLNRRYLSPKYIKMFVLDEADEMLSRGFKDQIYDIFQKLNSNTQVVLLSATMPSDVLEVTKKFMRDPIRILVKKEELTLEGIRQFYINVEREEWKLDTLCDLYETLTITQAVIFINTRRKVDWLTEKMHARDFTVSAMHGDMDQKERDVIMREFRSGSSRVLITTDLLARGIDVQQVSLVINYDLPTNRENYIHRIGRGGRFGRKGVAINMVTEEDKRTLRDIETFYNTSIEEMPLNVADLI"}
{"Strand": "CUAU", "4-mer enrichment [fold]": 0.658}
{"Strand": "UACC", "4-mer enrichment [fold]": 0.608}
{"Strand": "GCCA", "4-mer enrichment [fold]": 0.691}
{"Strand": "UAGA", "4-mer enrichment [fold]": 1.6}
{"Strand": "UUCG", "4-mer enrichment [fold]": 0.728}
{"Strand": "GGAC", "4-mer enrichment [fold]": 0.753}
{"Strand": "AUAC", "4-mer enrichment [fold]": 0.698}
{"Strand": "AAUC", "4-mer enrichment [fold]": 0.726}
{"data": "Set 2", "target": "Histone acetyltransferase KAT6A, both winged helices, GST fusion (KAT6A, Homo sapiens, UniProt Q92794, residues 1-181)", "technique": "protein binding microarray", "form": "double-stranded DNA, one strand shown", "matrix": "in vitro", "tested at": "not given", "notes": "8-mer, flanks averaged, mean of 2 arrays, mostly near background", "baseline": "not given", "direction": "higher = stronger binding", "Construct (chain)": "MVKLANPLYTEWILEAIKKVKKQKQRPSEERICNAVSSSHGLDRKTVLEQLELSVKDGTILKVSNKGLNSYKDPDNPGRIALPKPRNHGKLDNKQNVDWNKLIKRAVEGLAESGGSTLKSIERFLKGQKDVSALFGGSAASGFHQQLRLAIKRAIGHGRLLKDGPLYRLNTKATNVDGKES"}
{"Strand": "ACTGCACG", "E-score": 0.0427}
{"Strand": "AGTGCTCC", "E-score": 0.0464}
{"Strand": "ATGCGCTA", "E-score": 0.21}
{"Strand": "CAGCCTGG", "E-score": -0.137}
{"Strand": "TATTAATA", "E-score": 0.196}
{"Strand": "AGCAACTG", "E-score": -0.0668}
{"Strand": "GGACAAAA", "E-score": 0.0629}
{"Strand": "CATGCGTC", "E-score": 0.128}
{"data": "Set 3", "target": "PABPC1L2, full length, GST fusion (mouse, UniProt A0ABA7IW68)", "technique": "RNAcompete", "form": "RNA", "matrix": "in vitro", "tested at": "20 nM", "notes": "7-mer, probes averaged, single round", "baseline": "mean of 7-mers", "direction": "higher = stronger binding", "Target sequence (chain)": "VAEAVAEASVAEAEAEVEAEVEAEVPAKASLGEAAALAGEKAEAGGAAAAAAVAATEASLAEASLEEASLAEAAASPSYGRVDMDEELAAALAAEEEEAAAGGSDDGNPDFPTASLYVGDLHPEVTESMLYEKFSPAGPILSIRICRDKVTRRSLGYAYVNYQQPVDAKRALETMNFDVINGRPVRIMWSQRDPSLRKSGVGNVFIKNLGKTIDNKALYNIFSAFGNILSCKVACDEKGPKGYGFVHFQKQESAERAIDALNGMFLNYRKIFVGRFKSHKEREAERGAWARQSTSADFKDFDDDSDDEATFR"}
{"Strand": "CUAUCGG", "7-mer Z-score": -0.0881}
{"Strand": "CAAGCCA", "7-mer Z-score": -0.124}
{"Strand": "CUGUCCU", "7-mer Z-score": -0.313}
{"Strand": "UGGGAUG", "7-mer Z-score": 0.325}
{"Strand": "GCUAGAG", "7-mer Z-score": -0.0464}
{"Strand": "GGGUUAG", "7-mer Z-score": 0.0968}
{"Strand": "UCCGCUU", "7-mer Z-score": -0.456}
{"Strand": "UACCGAC", "7-mer Z-score": -0.271}
{"data": "Other studies, line by line", "starting sequence": "viral docking peptide; PGASRRLFGSSAD"}
{"Substitution": "PGASRRLFGSSAA [D13A]", "target": "CCND2, cyclin fold, Cln2 fusion (human)", "assay": "yeast growth competition, sequencing", "test system": "yeast", "setting": "weak parent motif", "how to read": "baseline: not given, higher = stronger binding", "measurement": "normalised enrichment score", "result": 0.153}
{"note": "Repeated from above (set 1):"}
{"Strand": "UACC", "4-mer enrichment [fold]": 0.608}
{"Strand": "AUAC", "4-mer enrichment [fold]": 0.698}
